# Measurements from different studies.
# Compare with care: the assays were run in different laboratories. “And” joins repeats or separate records; there may be more than shown. ± gives the spread as reported.
# NNMT: Nicotinamide N-methyltransferase (NNMT, Homo sapiens, UniProt P40261)
# Chain of UniProt P40261 (whole entry, looked up): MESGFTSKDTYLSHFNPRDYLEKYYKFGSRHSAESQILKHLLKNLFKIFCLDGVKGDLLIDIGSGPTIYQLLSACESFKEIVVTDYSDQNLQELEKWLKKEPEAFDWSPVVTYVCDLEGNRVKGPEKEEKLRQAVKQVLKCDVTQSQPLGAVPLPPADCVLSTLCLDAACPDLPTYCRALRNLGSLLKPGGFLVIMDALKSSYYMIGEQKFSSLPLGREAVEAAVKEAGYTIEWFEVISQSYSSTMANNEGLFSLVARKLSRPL
# ppa: Inorganic pyrophosphatase (ppa, Escherichia coli, UniProt P0A7A9)
# Chain of UniProt P0A7A9 (whole entry, looked up): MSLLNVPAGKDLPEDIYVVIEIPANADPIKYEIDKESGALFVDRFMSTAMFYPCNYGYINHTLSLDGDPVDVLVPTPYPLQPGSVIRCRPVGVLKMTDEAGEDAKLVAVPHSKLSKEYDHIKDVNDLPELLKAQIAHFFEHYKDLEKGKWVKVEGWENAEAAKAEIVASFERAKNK
# Gria1: Glutamate receptor 1 (Gria1, Rattus norvegicus, UniProt P19490)
# Chain of UniProt P19490 (whole entry, looked up): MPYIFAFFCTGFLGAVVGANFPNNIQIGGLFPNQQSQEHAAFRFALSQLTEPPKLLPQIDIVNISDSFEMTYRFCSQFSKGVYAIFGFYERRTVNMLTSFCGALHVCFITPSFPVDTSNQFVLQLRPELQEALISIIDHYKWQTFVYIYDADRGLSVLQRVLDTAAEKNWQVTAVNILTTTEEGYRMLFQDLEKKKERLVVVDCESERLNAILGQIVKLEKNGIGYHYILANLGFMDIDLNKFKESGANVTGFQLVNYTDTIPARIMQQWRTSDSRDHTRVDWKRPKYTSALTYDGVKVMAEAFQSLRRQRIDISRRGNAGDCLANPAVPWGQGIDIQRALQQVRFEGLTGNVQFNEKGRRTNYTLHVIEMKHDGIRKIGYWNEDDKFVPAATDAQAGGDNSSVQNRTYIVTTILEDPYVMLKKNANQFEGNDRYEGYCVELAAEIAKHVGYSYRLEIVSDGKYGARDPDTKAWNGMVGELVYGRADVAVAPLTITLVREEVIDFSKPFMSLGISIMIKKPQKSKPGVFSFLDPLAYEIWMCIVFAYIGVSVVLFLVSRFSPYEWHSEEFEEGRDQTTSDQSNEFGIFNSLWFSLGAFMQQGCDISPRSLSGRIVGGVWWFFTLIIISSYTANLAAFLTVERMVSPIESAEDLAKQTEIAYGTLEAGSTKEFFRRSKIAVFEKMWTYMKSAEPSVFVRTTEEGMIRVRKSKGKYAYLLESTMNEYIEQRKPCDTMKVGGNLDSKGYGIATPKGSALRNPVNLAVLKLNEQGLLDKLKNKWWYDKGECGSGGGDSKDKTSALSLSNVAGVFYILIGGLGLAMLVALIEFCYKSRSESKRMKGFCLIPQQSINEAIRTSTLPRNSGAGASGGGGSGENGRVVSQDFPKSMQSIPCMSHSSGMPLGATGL
# TDP1: Tyrosyl-DNA phosphodiesterase 1 (TDP1, Homo sapiens, UniProt Q9NUW8)
# Chain of UniProt Q9NUW8 (whole entry, looked up): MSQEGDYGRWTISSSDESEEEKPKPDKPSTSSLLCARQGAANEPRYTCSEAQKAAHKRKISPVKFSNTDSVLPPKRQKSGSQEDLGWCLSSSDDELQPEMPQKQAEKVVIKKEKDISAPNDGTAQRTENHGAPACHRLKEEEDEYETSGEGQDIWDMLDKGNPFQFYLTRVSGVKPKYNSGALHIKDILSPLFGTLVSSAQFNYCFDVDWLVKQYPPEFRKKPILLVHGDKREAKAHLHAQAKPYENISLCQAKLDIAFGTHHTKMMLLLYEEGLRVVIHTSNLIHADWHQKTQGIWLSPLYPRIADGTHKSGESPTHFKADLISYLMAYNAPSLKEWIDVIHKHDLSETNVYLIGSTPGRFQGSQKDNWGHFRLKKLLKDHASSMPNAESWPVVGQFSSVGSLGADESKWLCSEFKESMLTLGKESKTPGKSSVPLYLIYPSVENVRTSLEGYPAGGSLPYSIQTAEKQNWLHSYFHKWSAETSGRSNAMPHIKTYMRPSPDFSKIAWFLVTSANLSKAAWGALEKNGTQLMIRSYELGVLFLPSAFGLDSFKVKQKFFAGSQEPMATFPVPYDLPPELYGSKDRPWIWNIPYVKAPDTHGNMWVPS
# ADRB2: Beta-2 adrenergic receptor (ADRB2, Homo sapiens, UniProt P07550)
# Chain of UniProt P07550 (whole entry, looked up): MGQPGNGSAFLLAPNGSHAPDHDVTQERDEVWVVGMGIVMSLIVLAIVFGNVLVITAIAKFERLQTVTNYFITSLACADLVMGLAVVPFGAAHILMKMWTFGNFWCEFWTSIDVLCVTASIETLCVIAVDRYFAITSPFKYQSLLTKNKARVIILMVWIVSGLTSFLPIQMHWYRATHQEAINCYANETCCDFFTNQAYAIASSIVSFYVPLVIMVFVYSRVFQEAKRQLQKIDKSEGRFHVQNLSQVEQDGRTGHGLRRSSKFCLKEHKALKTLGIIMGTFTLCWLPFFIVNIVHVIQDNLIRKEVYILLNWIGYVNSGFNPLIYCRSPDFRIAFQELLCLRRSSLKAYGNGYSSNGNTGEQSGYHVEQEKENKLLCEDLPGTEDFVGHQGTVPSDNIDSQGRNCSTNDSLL
# glpG: Rhomboid protease GlpG (glpG, Escherichia coli, UniProt P09391)
# Chain of UniProt P09391 (whole entry, looked up): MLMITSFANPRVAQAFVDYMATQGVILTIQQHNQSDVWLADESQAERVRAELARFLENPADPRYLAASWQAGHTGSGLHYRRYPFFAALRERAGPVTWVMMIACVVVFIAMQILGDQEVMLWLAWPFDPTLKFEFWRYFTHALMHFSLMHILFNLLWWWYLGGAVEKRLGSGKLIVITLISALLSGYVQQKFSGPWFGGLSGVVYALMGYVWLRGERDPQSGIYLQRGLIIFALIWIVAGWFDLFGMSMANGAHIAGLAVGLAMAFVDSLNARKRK
# DNA dC->dU-editing enzyme APOBEC-3B: DNA dC->dU-editing enzyme APOBEC-3B (Homo sapiens, UniProt Q9UH17)
# Chain of UniProt Q9UH17 (whole entry, looked up): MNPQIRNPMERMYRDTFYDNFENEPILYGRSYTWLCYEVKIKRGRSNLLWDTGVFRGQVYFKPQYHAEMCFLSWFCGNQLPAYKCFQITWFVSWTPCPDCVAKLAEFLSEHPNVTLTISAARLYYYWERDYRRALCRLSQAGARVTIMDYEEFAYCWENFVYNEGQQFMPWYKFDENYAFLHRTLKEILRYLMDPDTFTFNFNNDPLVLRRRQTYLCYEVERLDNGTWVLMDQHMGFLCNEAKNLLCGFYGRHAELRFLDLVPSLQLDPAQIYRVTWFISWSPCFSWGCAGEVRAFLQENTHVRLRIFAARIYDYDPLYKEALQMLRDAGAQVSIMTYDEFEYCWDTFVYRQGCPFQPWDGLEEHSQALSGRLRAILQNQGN
# OfChi-h: Chitinase (OfChi-h, Ostrinia furnacalis, UniProt Q4AE59)
# NTSR1: Neurotensin receptor type 1 (NTSR1, Homo sapiens, UniProt P30989)
# Chain of UniProt P30989 (whole entry, looked up): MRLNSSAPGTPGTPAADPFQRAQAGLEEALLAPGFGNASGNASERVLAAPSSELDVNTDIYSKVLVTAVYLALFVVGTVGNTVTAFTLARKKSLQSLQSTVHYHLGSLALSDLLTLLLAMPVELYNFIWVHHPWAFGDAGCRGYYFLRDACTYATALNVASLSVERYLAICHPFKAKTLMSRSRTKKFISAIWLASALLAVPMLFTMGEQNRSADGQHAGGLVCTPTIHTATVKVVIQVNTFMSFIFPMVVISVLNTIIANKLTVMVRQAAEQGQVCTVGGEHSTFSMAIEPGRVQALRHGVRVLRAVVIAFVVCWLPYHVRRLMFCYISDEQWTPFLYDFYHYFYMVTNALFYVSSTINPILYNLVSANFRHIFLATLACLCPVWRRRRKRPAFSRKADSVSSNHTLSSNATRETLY
# PIK3CD: Phosphatidylinositol 4,5-bisphosphate 3-kinase catalytic subunit delta isoform (PIK3CD, Homo sapiens, UniProt O00329)
# Uncharacterized protein: Uncharacterized protein (Trypanosoma brucei brucei, UniProt Q386Q8)
# SLC7A5: Large neutral amino acids transporter small subunit 1 (SLC7A5, Homo sapiens, UniProt Q01650)
# Chain of UniProt Q01650 (whole entry, looked up): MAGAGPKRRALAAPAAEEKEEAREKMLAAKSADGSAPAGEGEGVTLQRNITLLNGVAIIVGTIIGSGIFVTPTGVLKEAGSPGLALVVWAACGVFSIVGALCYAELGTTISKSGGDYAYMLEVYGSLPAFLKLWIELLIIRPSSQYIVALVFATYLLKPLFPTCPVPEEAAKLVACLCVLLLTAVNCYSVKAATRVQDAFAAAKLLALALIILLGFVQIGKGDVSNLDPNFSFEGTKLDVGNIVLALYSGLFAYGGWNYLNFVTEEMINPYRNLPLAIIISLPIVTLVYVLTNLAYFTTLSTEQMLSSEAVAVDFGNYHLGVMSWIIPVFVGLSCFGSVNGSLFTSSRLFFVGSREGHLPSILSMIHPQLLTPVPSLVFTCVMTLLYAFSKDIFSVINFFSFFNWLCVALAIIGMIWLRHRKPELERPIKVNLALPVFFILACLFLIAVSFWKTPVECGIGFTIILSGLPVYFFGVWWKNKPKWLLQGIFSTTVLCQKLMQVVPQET
# MAOB: Amine oxidase [flavin-containing] B (MAOB, Homo sapiens, UniProt P27338)
# CHRM5: Muscarinic acetylcholine receptor M5 (CHRM5, Homo sapiens, UniProt P08912)
# Chain of UniProt P08912 (whole entry, looked up): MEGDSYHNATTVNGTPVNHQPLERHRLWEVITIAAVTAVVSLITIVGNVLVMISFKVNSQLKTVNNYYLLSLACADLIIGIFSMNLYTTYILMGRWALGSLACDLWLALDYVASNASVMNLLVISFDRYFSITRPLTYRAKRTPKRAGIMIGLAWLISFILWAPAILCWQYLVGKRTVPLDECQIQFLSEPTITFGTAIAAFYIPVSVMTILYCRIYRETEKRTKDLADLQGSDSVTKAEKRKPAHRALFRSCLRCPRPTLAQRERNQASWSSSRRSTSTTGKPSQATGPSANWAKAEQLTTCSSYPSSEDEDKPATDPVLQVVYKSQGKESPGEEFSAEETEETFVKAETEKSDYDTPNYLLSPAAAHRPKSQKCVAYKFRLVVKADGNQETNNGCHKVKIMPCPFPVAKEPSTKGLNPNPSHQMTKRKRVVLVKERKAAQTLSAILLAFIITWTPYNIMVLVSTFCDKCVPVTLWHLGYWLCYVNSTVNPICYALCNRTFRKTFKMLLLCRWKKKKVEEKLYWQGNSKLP
# Chain of UniProt O75365 (whole entry, unmodified, looked up): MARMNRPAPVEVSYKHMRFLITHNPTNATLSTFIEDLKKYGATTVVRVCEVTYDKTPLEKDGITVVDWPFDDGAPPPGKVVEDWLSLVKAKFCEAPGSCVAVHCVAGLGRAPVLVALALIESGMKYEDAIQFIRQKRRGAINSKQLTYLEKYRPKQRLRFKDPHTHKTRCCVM
Compound,target,test,system,setting,measurement,result
CNc1cc(CF)c(C(N)=O)cn1,NNMT,"enzyme activity in cells, inhibitor",,,IC50,0.316 µM
COc1ccc(C2=Nn3c(nnc3C3CCCCC3)SC2)cc1OC,ppa,"enzyme activity, inhibitor",,,IC50,575 µM
COC(=O)Cc1cc2c(cc1C(=O)c1ccccc1I)OCO2,Gria1,"ion current, patch clamp",,,IC50,6.02 µM
Cn1c(N)c(C=NOCc2ccc3nc(-c4ccccc4)c(Nc4ccc(C(=O)O)cc4)n3c2)c(=O)n(C)c1=O,TDP1,"enzyme activity, inhibitor",,"100 µM, unpurified compound",inhibition,-4.9%
CC(C)(C)n1ncc2c(=O)n(Cc3cccc(F)c3)c(NCc3ccc(F)cn3)nc21,"Cytochrome P450 2C19 (CYP2C19, Homo sapiens, UniProt P33261)","enzyme activity, inhibitor",human liver,,IC50,> 15 µM
Fc1ccc2nc(Nc3ccc(F)c(F)c3)nc(NC3CCCCC3)c2c1,ADRB2,"β-arrestin recruitment, antagonist",,,IC50,0.5 µM
O=C1CC(c2ccccc2)N1S(=O)(=O)c1ccc(Cl)cc1 (centres unmarked),glpG,"enzyme activity, inhibitor",,,IC50,5 µM
CCC1(O)CCCN(C(=O)c2ccc(-c3ccccc3C(F)(F)F)cc2)C1 (centres unmarked),DNA dC->dU-editing enzyme APOBEC-3B,"enzyme activity, inhibitor, HPLC",,,IC50,656 µM
COC(=O)C1=CNC=C(C(=O)OC)C1c1ccc(F)c(C(F)(F)F)c1,"Voltage-dependent L-type calcium channel subunit alpha-1C (CACNA1C, Homo sapiens, UniProt Q13936)","ion current, inhibitor, patch clamp",,pH 7.4,IC50,13.9 µM
Cc1nn(-c2cccc(N)c2)c(=O)c2cnc(Nc3ccc(N4CCNCC4)cc3)nc12,"RAF proto-oncogene serine/threonine-protein kinase (RAF1, Homo sapiens, UniProt P04049, Y340D/Y341D)","kinase activity, inhibitor, SelectScreen kinase profiling",,,IC50,2.71 µM
CNc1cc(N)c(C(N)=O)cn1,NNMT,"enzyme activity, inhibitor",,,IC50,0.2 µM
CN(c1ccccc1)c1nc(NC2CCCCC2)c2ccccc2n1,ADRB2,"cAMP production, antagonist, GloSensor",,added: isoproterenol 1 µM,IC50,> 50 µM
CN(C)c1nc(NCc2cccc3ccccc23)c(/N=N/c2ccc(Cl)cc2)c(N(C)C)n1,OfChi-h,"enzyme activity, inhibitor, fluorescence",,,IC50,0.32 µM
O=c1cc(-c2ccc(O)cc2)oc2c([C@@H]3OC[C@H](O)[C@H](O)[C@H]3O)c(O)c([C@@H]3O[C@H](CO)[C@@H](O)[C@H](O)[C@H]3O)c(O)c12,"Calcium/calmodulin-dependent protein kinase type II subunit delta (CAMK2D, Homo sapiens, UniProt Q13557)","binding, LanthaScreen Eu binding",,19 h,IC50,0.27 µM
CC(OC(=O)c1cc2c(s1)CCC2)C(=O)Nc1ccc2c(c1)OCCO2 (centres unmarked),"Protein tyrosine phosphatase type IVA 3, with CNNM4 CBS domain (PTP4A3, Homo sapiens, UniProt O75365)","protein-protein interaction, inhibitor, HTRF",,,IC50,1.9 µM
COc1cccc(OC)c1-c1cc(C(=O)NC2(C(=O)O)C3CC4CC(C3)CC2C4)nn1-c1ccc(C(=O)N(C)CCCN(C)CCCN(C)C(=O)[C@H](CCCCNC(=O)[C@H](CC(C)C)NC(=O)C2OC2C(=O)O)NC(=O)CN2CCN(CC(=O)O)CCN(CC(=O)O)CCN(CC(=O)O)CC2)cc1C(C)C (mixture of isomers),NTSR1,"ligand displacement, radioligand",,,IC50,0.015 µM
C[N+](C)(C/C=C/CN1C(=O)c2ccccc2C1=O)CCCN1c2ccccc2CCc2ccc(Cl)cc21,ppa,"inhibitor, counter-screen, coupling enzyme alone",,,IC50,34.3 µM
O=C1Nc2ccccc2C12NC(c1ccc(Cl)c(Cl)c1)C1(C(=O)Nc3ccccc31)N2Cc1ccc(Cl)c(Cl)c1 (centres unmarked),PIK3CD,"enzyme activity, inhibitor, ADP detection",,,IC50,0.216 µM
Cc1ccc2c(c1Br)C(O)(CC(=O)c1ccc(C3CCCCC3)cc1)C(=O)N2 (centres unmarked),Uncharacterized protein,"inhibitor, coupled colorimetric",Trypanosoma brucei,,IC50,> 100 µM
CCCN(C)c1ccc2nc(C3CC3)nc(N3CCC(c4ccccc4OC)CC3)c2c1,NTSR1,"G protein activation, antagonist",,,IC50,0.554 µM
Fc1ccc(Nc2nc(NC3CCCCC3)c3ccccc3n2)cc1Cl,ADRB2,"β-arrestin recruitment, antagonist",,,IC50,3 µM
Cc1cnc(Nc2ccc3c(c2)CCN(C(=O)/C=C/CC(C)C)C3)nc1-c1cnn(C(C)C)c1,"Tyrosine-protein kinase JAK1 (JAK1, Homo sapiens, UniProt P23458)","enzyme activity, inhibitor, ADP detection",,,IC50,0.00238 µM
COc1ccc(C(=O)CC2(O)C(=O)Nc3ccc(C)cc32)cc1OC (centres unmarked),ppa,"enzyme activity, inhibitor",,,IC50,> 100 µM
O=C1CC(c2ccccc2)N1S(=O)(=O)c1ccc(-c2ccccc2)cc1 (centres unmarked),glpG,"substrate cleavage, inhibitor",NR698,,IC50,7 µM
Nc1cccc(NC(P(=O)(O)O)P(=O)(O)O)c1,"polyphosphate kinase 2 (Cytophaga hutchinsonii, UniProt A0A6N4SMB5)","enzyme activity, inhibitor, HPLC",,"30 min, 37 °C, added: 0.04 mM ADP and 0.3 mM polyP",IC50,70.5 µM and 70 µM
O=C(O)Cc1cc2c(cc1C(=O)c1ccccc1I)OCO2,Gria1,"glutamate-evoked current, inhibitor, whole-cell patch clamp","HEK293T, homomeric receptor",,IC50,4.79 µM
N[C@@H](Cc1c[nH]c2ccc(OCc3ccccc3-c3ccsc3)cc12)C(=O)O,SLC7A5,"transporter uptake, inhibitor, radiometric",,,IC50,5.52 µM
COc1ccccc1N1CCN(c2nc(C3CC3)nc3cc(C(F)(F)F)c(OC)cc23)CC1,NTSR1,"G protein activation, antagonist",,,IC50,1.05 µM
Cc1ccc(Nc2cc(NC3CC3)n3ncc(C#N)c3n2)cc1NC(=O)C1CC1,"Serine/threonine-protein kinase Sgk3 (SGK3, Homo sapiens, UniProt Q96BR1)",inhibitor,,,IC50,> 10 µM
CCN(CC)CC(=O)Nc1cccc(-n2cc(-c3ccc4ccc(-c5cn(-c6cccc(NC(=O)CN(CC)CC)c6)nn5)cc4c3)nn2)c1,"Serine/threonine-protein kinase WNK1 (WNK1, Homo sapiens, UniProt Q9H4A3)","enzyme activity, inhibitor",,,IC50,> 10 µM
CNc1cc(C)c(C(N)=O)cn1,NNMT,"enzyme activity, inhibitor",,,IC50,0.251 µM
OC1CCCN(CCCNc2cc(-c3ccccc3)nc3ccnn23)C1 (centres unmarked),DNA dC->dU-editing enzyme APOBEC-3B,"enzyme activity, inhibitor, HPLC",,,IC50,142 µM
CNc1cc(F)c(C(N)=O)cn1,NNMT,"enzyme activity in cells, inhibitor",,,IC50,15.8 µM
OCC1OC(n2cnc3c(NCCCc4ccccc4)ncnc32)C(O)C1O (centres unmarked),"DNA adenine methyltransferase CamA (Clostridioides difficile, UniProt Q183J3)",,,,IC50,0.7 ± 0.1 µM
COP(=O)(O)OCCCCCCNC(=O)c1cc2ccccc2oc1=O,"Retinal rod rhodopsin-sensitive cGMP 3',5'-cyclic phosphodiesterase subunit delta (PDE6D, Homo sapiens, UniProt O43924)",,,,IC50,no binding
COc1ccccc1C1CCN(c2nc(C3(C)CCCC3)nc3ccc(N(C)CCO)cc23)CC1,NTSR1,"G protein activation, antagonist",,,IC50,9.7 µM
Cc1cc(O)c2c(c1)C(=O)c1cc(O)c(S(=O)(=O)O)c(O)c1C2=O,MAOB,"enzyme activity, inhibitor",,,IC50,> 100 µM
COC(=O)Cc1cc2c(cc1C(=O)c1ccccc1)OCO2,Gria1,"glutamate-evoked current, inhibitor, whole-cell patch clamp","HEK293T, homomeric receptor",,IC50,6.17 µM
O=C(CC1(O)C(=O)Nc2cc(Cl)cc(Cl)c21)c1ccc2c(c1)OCO2 (centres unmarked),Uncharacterized protein,"inhibitor, coupled colorimetric",Trypanosoma brucei,,IC50,348 µM
CN1C(=O)/C(=N\c2ccc(Cl)cc2Br)c2ccccc21,PIK3CD,"enzyme activity, inhibitor, ADP detection",,,IC50,0.0894 µM
CN(C)c1nc(NCc2ccccc2F)c(/N=N/c2ccc(Cl)cc2)c(N(C)C)n1,OfChi-h,"enzyme activity, inhibitor, fluorescence",,,IC50,0.15 µM
N[C@@H](Cc1c[nH]c2ccc(OCc3ccc(-c4ccco4)cc3)cc12)C(=O)O,SLC7A5,"transporter uptake, inhibitor, radiometric",,,IC50,31.5 µM
CC(C)c1ccc(/C=C/C(=O)c2c[nH]c3ccccc23)cc1,MAOB,"enzyme activity, inhibitor",,,IC50,0.481 µM
Cc1ccc(S(=O)(=O)n2cccc2C=NOCc2ccc(-c3nc4cc(-c5ccccc5)ccn4c3Nc3ccc(C(=O)O)cc3)cc2)cc1,TDP1,"enzyme activity, inhibitor",,"100 µM, unpurified compound",inhibition,24%
Cc1cc2nc(C3CC3)nc(N3CCC(c4ccccc4N4CCC4)CC3)c2cc1N(C)CCO,NTSR1,"G protein activation, antagonist",,,IC50,5.98 µM
O=C(c1cccc(-c2cc(NCCO)ncn2)c1)N1CCCC1c1ccccc1 (centres unmarked),DNA dC->dU-editing enzyme APOBEC-3B,"enzyme activity, inhibitor, HPLC",,,IC50,757 µM
Clc1ccc(C2=Nn3c(nnc3C3CCCCC3)SC2)cc1,Uncharacterized protein,"inhibitor, coupled colorimetric",Trypanosoma brucei,,IC50,> 100 µM
CNCc1ccc2c(c1)C[C@H](CNC(=N)N)[C@H]2NC(=O)C(=O)Nc1ccc(Cl)c(F)c1,"env (Human immunodeficiency virus 1, UniProt O40222)",viral infection,"Cf2Th-CD4/CCR5, HIV-1",48 h,IC50,3.07 µM
Cc1nc(S(=O)(=O)Nc2cc3c(cc2Oc2cccc(COCC(C)C)c2)n(C)c(=O)n3C)cn1C,"Bromodomain-containing protein 1, bromodomain (BRD1, Homo sapiens, UniProt O95696)","acetylated histone H4 peptide binding, inhibitor, HTRF",,,IC50,0.696 µM
O=C(CCNC(=O)CNC(=O)CC(c1ccccc1)(c1ccccc1)c1ccccc1)NC[C@@H]1CCCN(C[C@H]2C[C@H](F)C2)C1,CHRM5,"ligand displacement, radioligand",,cell membranes,IC50,> 30 µM
Clc1cccc(CNc2nc(NC3CCCCC3)c3ccccc3n2)c1,ADRB2,"β-arrestin recruitment, antagonist",,,IC50,21 µM
CC(=O)OC1CCC2(C)C(CCC3(C)C2CC=C2C4C(C)C(C)CCC4(C(=O)O)CCC23C)C1(C)C (centres unmarked),"UDP-glucuronosyltransferase 1A4 (UGT1A4, Homo sapiens, UniProt P22310)","enzyme activity, inhibitor","human, liver microsomes",,IC50,1.36 µM and 1.22 µM
Cc1ccc(C)c(C2=Nn3c(nnc3C3CCCCC3)SC2C)c1 (centres unmarked),ppa,"enzyme activity, inhibitor",,,IC50,226 µM
Nc1ccc2c(NC3CCCCC3)nc(Nc3ccc(F)c(F)c3)nc2c1,ADRB2,"β-arrestin recruitment, antagonist",,,IC50,4.4 µM
C[N+](C)(CCCN1c2ccccc2CCc2ccc(Cl)cc21)Cc1ccccc1,ppa,"inhibitor, counter-screen, coupling enzyme alone",,,IC50,29.2 µM
O=C(CCNC(=O)CNC(=O)CC(c1ccccc1)(c1ccccc1)c1ccccc1)NC[C@@H]1CCCN(C(=O)c2ccc(F)cc2)C1,CHRM5,"ligand displacement, radioligand",,cell membranes,IC50,> 30 µM

# Repeated from above:
Compound,target,test,system,setting,measurement,result
CC(C)(C)n1ncc2c(=O)n(Cc3cccc(F)c3)c(NCc3ccc(F)cn3)nc21,"Cytochrome P450 2C19 (CYP2C19, Homo sapiens, UniProt P33261)","enzyme activity, inhibitor",human liver,,IC50,> 15 µM
Fc1ccc2nc(Nc3ccc(F)c(F)c3)nc(NC3CCCCC3)c2c1,ADRB2,"β-arrestin recruitment, antagonist",,,IC50,0.5 µM
O=C1CC(c2ccccc2)N1S(=O)(=O)c1ccc(Cl)cc1 (centres unmarked),glpG,"enzyme activity, inhibitor",,,IC50,5 µM
CCC1(O)CCCN(C(=O)c2ccc(-c3ccccc3C(F)(F)F)cc2)C1 (centres unmarked),DNA dC->dU-editing enzyme APOBEC-3B,"enzyme activity, inhibitor, HPLC",,,IC50,656 µM
COC(=O)C1=CNC=C(C(=O)OC)C1c1ccc(F)c(C(F)(F)F)c1,"Voltage-dependent L-type calcium channel subunit alpha-1C (CACNA1C, Homo sapiens, UniProt Q13936)","ion current, inhibitor, patch clamp",,pH 7.4,IC50,13.9 µM
Cc1nn(-c2cccc(N)c2)c(=O)c2cnc(Nc3ccc(N4CCNCC4)cc3)nc12,"RAF proto-oncogene serine/threonine-protein kinase (RAF1, Homo sapiens, UniProt P04049, Y340D/Y341D)","kinase activity, inhibitor, SelectScreen kinase profiling",,,IC50,2.71 µM
